Published values gathered from unrelated publications.
Parts stem from different laboratories: compare values within a part only. Positions count from the first letter of the parent shown.

Study 1
Target: RNA binding protein fox-1 homolog 2, RRM domain, GST-SBP tag (RBFOX2, Homo sapiens, UniProt O43251-10, residues 100-194)
Technique: RNA Bind-n-Seq
Form: RNA
Sample: in vitro
Concentration: 365 nM
Notes: natural RNA segment, single round, ends assumed
Baseline: no-protein control
Reading: higher = stronger binding
Measurement: RBNS enrichment (R)
Construct (chain): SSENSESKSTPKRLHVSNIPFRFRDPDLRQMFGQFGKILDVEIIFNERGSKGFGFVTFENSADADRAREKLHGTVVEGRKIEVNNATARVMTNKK
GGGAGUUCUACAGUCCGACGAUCUGUACACUCCACUCUGCUACAGCAGCAUGGUGAGGACCCACCACAGGAGCUGUGCUCCUCAGAGGGCAGAAUCUACAUUAAGUGCCGCCCAAAGGAGAGUGCGUUGUCAUUGGAAUUCUCGGGUGCCAA: 0.284
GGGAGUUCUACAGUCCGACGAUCUGGUUCUCUUGAGCUGGUGUCACUUUCUAACCUUUGCCAGUCUAGCCCCAGCAGGGCACCGUGUGUGUGAGUGUGGUUUGGUGCUGUUUUGGAGUGUGCCUGCCCCCCAGUGGAAUUCUCGGGUGCCAA: 0.617
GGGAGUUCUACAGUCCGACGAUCCAUAUGGAGGGGUGUCAGGUUCUAUGUGACCCAGUAAUGAGAAGAGCUUGAAGGUGAGGCCUGAGGGGCCACAGAUGAGUCAUGUUUUAGUGCUGAUGACAGAGGGGCCGUGGAAUUCUCGGGUGCCAA: 1.84
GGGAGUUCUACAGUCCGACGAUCAAGAUGCAUGCGAUGAAUACCAACAAUAUCACUGAGCUAGUGAACUAUUUGGCAAAUGACUUAAGGUUAGAUGAAGCUUCAGUCUUGAUAACUGAAUAUUCAAAGCACUGUGGAAUUCUCGGGUGCCAA: 4.79
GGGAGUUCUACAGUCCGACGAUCUUUUAAGAACAACGUGGACAUCCGGCAGCACCGGAGCCUCCAGGAGCGCGUGCGGGCAGCCCGCAUGCUGCUGGCCAGGAGCCCCCAGUGCCCUGUGGUGGUGGACACAAUGGAAUUCUCGGGUGCCAA: 0.27
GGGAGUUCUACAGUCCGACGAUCACCCCGGGCUGAGACCUCCACAGACAAGGGCUCCCCAUGCUGGCCAUUGGCAGGGGCCCAAGAAGUUCAGUGACCAACUGGUCCUUCCACACCACACCAGCUGGUGCUGCUGGAAUUCUCGGGUGCCAA: 0.672
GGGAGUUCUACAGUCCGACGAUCGAAAGCAUCUUCACAAUGAAGCUUCCAGAUAGCACCGUUUUGCUAAAAGAUACAUUCUCAUUGUUUUCCAACAGUGAUGGCUUCCACAUAAGGUUAAACAAACUAGGUGCUGGAAUUCUCGGGUGCCAA: 0.279
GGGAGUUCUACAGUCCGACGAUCCUCGCCCACCCCCCAUUCUCUCCUUGGUUUCUUGGCCCUUUACUGUGGCUGUACUUCAGAUCAUCAAAGCAAGAGAAAGAAUGUGCUGAGUGUUUUCUUCCCUGUGCCUUUGGAAUUCUCGGGUGCCAA: 0.546

Study 2
Target: Interferon regulatory factor 3, full length, phosphomimetic (IRF3, Homo sapiens, UniProt Q14653, residues 1-427, S386D/S396D/S398D/S402D/T404D/S405D)
Technique: protein-binding microarray
Form: double-stranded DNA, one strand shown
Sample: in vitro
Concentration: 2540 nM top
Notes: 60-bp whole probe
With: salmon DNA 0.4 mg/ml
Baseline: random background probes
Reading: higher = stronger binding
Measurement: fitted relative affinity
All sequences stand within: GCCTAGCAC … GTCTTGATTCGCTTGACGCTGCTG
Target sequence (chain): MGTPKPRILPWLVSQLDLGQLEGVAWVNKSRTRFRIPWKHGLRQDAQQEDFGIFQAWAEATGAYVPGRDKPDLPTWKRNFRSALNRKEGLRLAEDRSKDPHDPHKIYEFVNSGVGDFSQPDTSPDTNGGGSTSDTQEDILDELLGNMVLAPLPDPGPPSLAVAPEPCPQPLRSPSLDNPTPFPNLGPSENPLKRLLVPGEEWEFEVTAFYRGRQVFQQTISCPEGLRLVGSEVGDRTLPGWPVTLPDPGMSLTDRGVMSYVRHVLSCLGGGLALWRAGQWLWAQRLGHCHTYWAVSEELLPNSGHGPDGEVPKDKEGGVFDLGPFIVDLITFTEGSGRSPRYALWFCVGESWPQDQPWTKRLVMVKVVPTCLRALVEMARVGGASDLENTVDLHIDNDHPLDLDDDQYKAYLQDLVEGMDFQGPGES
ATAGATCTCAGACTGGATTAGTGCTAG: 0.0175 z-score
TCAATTTTCGTTTTTATACTGTGCTAG: 4.81 z-score
TCATTTGTCCCTATTTAACTGTGCTAG: 1.96 z-score
TTAGTTATCGGGACTGGGTTAGTGCTA: 0.156 z-score
CAGTTTTCCTATGTCATTTAGTGCTAG: 3.73 z-score
TTAGGAATCCTTTTCCTTTAGTGCTAG: 5.38 z-score
TCAATTCTCTACTTGTGACTGTGCTAG: 0.801 z-score
AGTGAATTAGGTTTCACTTTGTGCTAG: 3.64 z-score
TTAGAACTGAGTCTCGATAAGTGCTAG: -0.413 z-score
GACGGTTTCCTTTTCCTGTCGTGCTAG: 11.4 z-score
TTAGGTTTCCTAATCCTTTAGTGCTAG: 6.75 z-score
TCACCTTTTTTGTTGTTACTGTGCTAG: 2.92 z-score
GAGGATTTCAGTTTCGAGACGTGCTAG: 4.1 z-score
GACCAACTGAGACTGGAGACGTGCTAG: -0.125 z-score
GACGATATCAGACTGGATACGTGCTAG: 0.368 z-score
TTAGGTTTCCTTTCTCTTTAGTGCTAG: 12.7 z-score
GACGGTATCGGCCTGGGGACGTGCTAG: 0.597 z-score
AGCAGGGGCGCAGGTAGGTGGTGCTAG: -1.5 z-score
GACGATTTCGGGTATCCAGACGTGCTA: 2.1 z-score

Study 3
Target: Sal-like protein 4, full length isoform A (SALL4, Homo sapiens, UniProt Q9UJQ4, residues 1-1053)
Chain of UniProt Q9UJQ4 (whole entry, looked up): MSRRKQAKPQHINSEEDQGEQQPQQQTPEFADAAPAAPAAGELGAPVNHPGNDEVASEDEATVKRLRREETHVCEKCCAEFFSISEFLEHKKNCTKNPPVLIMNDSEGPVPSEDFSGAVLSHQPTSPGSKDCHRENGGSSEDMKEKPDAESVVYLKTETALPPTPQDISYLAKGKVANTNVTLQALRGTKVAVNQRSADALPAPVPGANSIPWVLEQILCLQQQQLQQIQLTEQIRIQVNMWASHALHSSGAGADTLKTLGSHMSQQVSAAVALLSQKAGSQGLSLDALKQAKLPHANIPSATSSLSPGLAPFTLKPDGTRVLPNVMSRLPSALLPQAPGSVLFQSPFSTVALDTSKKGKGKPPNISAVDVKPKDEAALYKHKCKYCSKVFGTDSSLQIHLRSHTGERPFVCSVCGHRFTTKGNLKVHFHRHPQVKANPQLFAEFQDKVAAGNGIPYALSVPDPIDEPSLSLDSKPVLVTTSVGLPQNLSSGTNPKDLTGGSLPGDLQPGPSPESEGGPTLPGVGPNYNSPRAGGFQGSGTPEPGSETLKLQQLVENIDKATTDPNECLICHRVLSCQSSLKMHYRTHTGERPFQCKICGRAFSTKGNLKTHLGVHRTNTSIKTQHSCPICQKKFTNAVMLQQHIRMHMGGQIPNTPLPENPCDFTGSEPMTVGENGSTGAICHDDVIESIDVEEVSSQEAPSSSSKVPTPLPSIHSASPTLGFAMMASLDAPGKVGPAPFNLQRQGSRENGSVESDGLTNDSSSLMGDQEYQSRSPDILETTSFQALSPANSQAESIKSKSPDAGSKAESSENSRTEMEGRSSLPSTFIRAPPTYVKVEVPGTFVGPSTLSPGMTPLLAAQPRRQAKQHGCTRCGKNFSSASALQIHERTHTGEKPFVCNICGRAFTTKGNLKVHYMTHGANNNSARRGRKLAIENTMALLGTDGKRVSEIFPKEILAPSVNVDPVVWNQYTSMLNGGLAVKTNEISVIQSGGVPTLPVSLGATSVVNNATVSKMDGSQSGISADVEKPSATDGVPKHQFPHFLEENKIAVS
Technique: universal PBM
Form: double-stranded DNA, one strand shown
Sample: in vitro
Concentration: 600 nM
Notes: 8-mer, flanks averaged, mean of replicates
Reading: higher = stronger binding
Measurement: E-score
AGTCTTTA: 0.152
ATCGGCCG: -0.235
CGGACGCC: -0.385
CGTCCTGA: -0.114
CATTAAGC: 0.026
AGACTATG: 0.0384
ATTGCGCG: 0.0928
CGCATAGC: -0.106
CATCCGGG: -0.32
ACGTCCAT: 0.0576
AGTATTTG: 0.205
GCGCGGGA: -0.259
AGGTCAGA: -0.198
CGGTGGCC: -0.37
CAAAGTGC: -0.142
CGGGTCGC: -0.28
CTAGTCTA: 0.0156
ACTAAGCC: -0.0671
CGCCCCAC: -0.31
CTCAAGCA: 0.062
CAGACGGG: -0.227
ACATCTGC: -0.0711
TAGTTAAA: 0.238
CGATGGCG: -0.317
ATGTACAC: 0.187

Study 4
Target: Fragile X messenger ribonucleoprotein 1, C-terminal low-complexity region (Fmr1, Mus musculus, UniProt P35922)
Technique: RNA Bind-n-Seq
Form: RNA
Sample: in vitro
Concentration: 200 nM
Notes: whole 134-nt RNA, ends assumed
With: 150 mM LiCl
Baseline: input library
Reading: higher = stronger binding
Measurement: log2 enrichment
Library: 7-deaza-guanosine replaces G
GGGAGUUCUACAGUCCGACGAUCUCCUGUGCUACACAUCGUAUGUACCGAAUCGGGAAAAAAGGGAAAAAAGGAAAAAAGGGAAAGUAUUAUGUUACGCCGUUCGGAUCUGCAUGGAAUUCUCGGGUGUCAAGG: 0.152
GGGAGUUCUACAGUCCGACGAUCUAACUUUAGAGGAGGAUGUGAUGGAUAUGGCAGUGGACGUGGAUUUGGGGAUGGCUAUAAUGGGUAUGGAGGAGGACCUGGAGGUGGCAAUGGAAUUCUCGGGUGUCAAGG: 0.802
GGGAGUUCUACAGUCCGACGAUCUCAAGUCCUGUGCUACACAUCGUAUGUACCGAAUCGGGGCCGGGCCGGGCCGGGAAAGUAUUAUGUUACGCCGUUCGGAUCUGCACUUCCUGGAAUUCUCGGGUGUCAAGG: 0.48
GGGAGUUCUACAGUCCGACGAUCCACAGACAACACGCACCCACACAGACACAGAGGGAAGGGGUUGGGAUGGGGACAGGGUGCACAGCAGGGCGGGGUAGGACCCCAGCCUCUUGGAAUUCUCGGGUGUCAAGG: -0.0101
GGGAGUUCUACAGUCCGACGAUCCCUCAAGUCCUGUGCUACACAUCGUAUGUACCGAAUCGGGUUGGUUGGGUUGGAAAGUAUUAUGUUACGCCGUUCGGAUCUGCACUUCCAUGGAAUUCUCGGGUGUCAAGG: -0.542
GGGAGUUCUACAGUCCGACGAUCGUCCUGUGCUACACAUCGUAUGUACCGAAUCGGGGUUUGGGGAAAAAGGGGAAAGGGGAAAGUAUUAUGUUACGCCGUUCGGAUCUGCACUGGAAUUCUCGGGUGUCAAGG: 0.52
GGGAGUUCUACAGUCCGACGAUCUGGGAGGUGGAUUUUGUUUAUUUUUUUAGCUCAUUGCCAGGGGUGGGAAUUUUUUUUUAAUAUGUGUCAUGAAUAAAGUUGUUUUUGAAAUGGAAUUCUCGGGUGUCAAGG: 1.12
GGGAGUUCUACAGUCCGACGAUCAGUCCUGUGCUACACAUCGUAUGUACCGAAUCGGGAAAAAAAGGGAAAGGGAAAGGGAAAGUAUUAUGUUACGCCGUUCGGAUCUGCACUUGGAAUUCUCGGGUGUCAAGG: -0.975

Single results of other studies
Target: CCNE1, cyclin fold, Cln2 fusion (human)
Technique: yeast growth competition, sequencing
Sample: yeast
Notes: weak parent motif
Baseline: not given
Reading: higher = stronger binding
Parent: CDAN1 docking peptide (human); RGARSQLFPPTEA
RGARSQLFAPTEA [P9A]
normalised enrichment score: 0.0686

RGARSQLFPPAEA [T11A]
normalised enrichment score: 0.133

Excerpt of the above (single results of other studies):
RGARSQLFAPTEA [P9A]
normalised enrichment score: 0.0686

RGARSQLFPPAEA [T11A]
normalised enrichment score: 0.133
